Measured values pooled from the literature.
Each line is one published result; not all experiments were run side by side. Numbers after ± are the reported error.
Organism: Plasmodium falciparum

SMILES	test	system	setting	EC50 [nM]
COCC(=O)N1CCC[C@H](C(=O)NCc2nc(-c3ccc(Cl)cc3)cs2)C1	SYBR Green growth	asexual blood-stage parasites, 3D7	72 h	18 ± 4.5
CC[C@](N)(c1cnc(C(F)(F)F)c(Cl)c1)c1c2ccn(C3CC3)c(=O)c2nn1C	parasite growth	3D7		2510
CCOCC(=O)N1CCC[C@H](C(=O)NCc2nc(-c3ccc(C)nc3)cs2)C1	SYBR Green growth	asexual blood-stage parasites, 3D7	72 h	4.3 ± 0.68
O=S(=O)(c1ccc(-c2ccc3nccc(Nc4ccccn4)c3c2)cc1)N1CCOCC1	parasite growth, SYBR Green	TM91C235		670
CCN1CCN(Cc2ccc(Nc3nc4cnc(Oc5ccnc(NC(C)=O)c5)nc4n3C)cc2C(F)(F)F)CC1	parasite growth, SYBR Green I	Dd2	72 h	1400 ± 200
O=S(=O)(c1ccc(-c2ccc3nccc(Nc4cnccn4)c3c2)cc1)N1CCOCC1	parasite growth, SYBR Green	W2		> 20000
O=C(Nc1ccc(CNc2ncnc3ccccc23)cc1)c1ccc(Cl)c(F)c1	parasite growth, LDH colorimetric	3D7 Hyp1-Nluc	72 h	1550
Cc1noc(C)c1Nc1ccnc2ccc(-c3ccc(S(=O)(=O)N4CCOCC4)cc3)cc12	parasite growth, SYBR Green	TM91C235		> 20000
COCC(=O)N1CCC[C@H](C(=O)Nc2nc(-c3ccccc3)cs2)C1	SYBR Green growth	asexual blood-stage parasites, 3D7	72 h	> 5000
CCn1cc(C2CC2)c2c(CN3CCC4(CCC4)CC3)n(C)nc2c1=O	parasite growth	3D7		15.8
COc1ncc(Nc2ccnc3ccc(-c4ccc(S(=O)(=O)N5CCOCC5)cc4)cc23)cn1	parasite growth, SYBR Green	TM91C235		970
Cc1cc(C(C)NC(=O)c2[nH]cc(Cc3cccc4ccncc34)c2C)no1 (stereo not shown)	parasite growth	3D7		2 to 4
NCCOCC(=O)N1CCC[C@H](C(=O)NCc2nc(-c3ccc(C4CC4)cc3)cs2)C1	SYBR Green growth	asexual blood-stage parasites, 3D7	72 h	20 ± 1.5
Cc1cc(Nc2ccnc3ccc(-c4ccc(S(=O)(=O)N5CCOCC5)cc4)cc23)sn1	parasite growth, SYBR Green	D6		430
COCC(=O)N1CCC[C@H](C(=O)NCc2nc(-c3ccc(OC)cc3)cs2)C1	SYBR Green	3D7	72 h	31 ± 5
O=S(=O)(c1ccc(-c2ccc3nccc(Nc4cccnc4)c3c2)cc1)N1CCOCC1	parasite growth, SYBR Green	TM91C235		730
N#Cc1ccc(-c2csc(CNC(=O)[C@H]3CCCN(C(=O)COCCF)C3)n2)cc1	SYBR Green growth	asexual blood-stage parasites, 3D7	72 h	4.1 ± 0.68
CCn1nccc1Nc1ccnc2ccc(-c3ccc(S(=O)(=O)N4CCOCC4)cc3)cc12	parasite growth, SYBR Green	W2		3200
O=C(NCc1nc(-c2ccccc2)cs1)[C@H]1CCCN(C(=O)[C@H]2CCCO2)C1	SYBR Green growth	asexual blood-stage parasites, 3D7	72 h	91 ± 12
CCn1cc(C2CC2)c2c(CN3CCC(C)(F)CC3)n(C)nc2c1=O	parasite growth	3D7		20
CCOCC(=O)N1CCC[C@@H](CNCc2nc(-c3ccccc3)cs2)C1	SYBR Green growth	asexual blood-stage parasites, 3D7	72 h	> 5000
CCN(c1ccc(C)cc1)c1ccc(NC(=O)CN(C)c2ccccc2N2CCCC2=O)cn1	gametocyte viability, luciferase	stage II-III gametocytes	48 h	2

For quick reference, copied from above:
SMILES	test	system	setting	EC50 [nM]
Cc1cc(Nc2ccnc3ccc(-c4ccc(S(=O)(=O)N5CCOCC5)cc4)cc23)sn1	parasite growth, SYBR Green	D6		430
